Results pooled from the literature.
Each numbered part is a random draw from the data of one study; scales do not carry over between parts.

Series 1
Target: Fragile X messenger ribonucleoprotein 1, C-terminal low-complexity region (Fmr1, Mus musculus, UniProt P35922)
Technique: RNA Bind-n-Seq
Molecule type: RNA
Medium: in vitro
Concentration: 200 nM
Setting: whole 134-nt RNA, ends assumed
Together with: 150 mM LiCl
Reference: input library
Direction: higher = stronger binding
Each molecule: 7-deaza-guanosine replaces G
All sequences stand within: GGGAGUUCUACAGUCCGACGAUC … UGGAAUUCUCGGGUGUCAAGG
Sequence	log2 enrichment
CAAGUCCUGUGCUACACAUCGUAUGUACCGAAUCGGAAAGGUUUUUGGUUUUUGGAAAGUAUUAUGUUACGCCGUUCGGAUCUGCACUUC	-2.16
UCCUCAAGUCCUGUGCUACACAUCGUAUGUACCGAAUCGGUGGGUGGGUGGAAAGUAUUAUGUUACGCCGUUCGGAUCUGCACUUCCAGC	0.794
UCCUGUGCUACACAUCGUAUGUACCGAAUCGGGAAAGGGAAAAAAAGGGAAAAAAAGGGAAAGUAUUAUGUUACGCCGUUCGGAUCUGCA	0.653
CUGUGCUACACAUCGUAUGUACCGAAUCGGCCCCCCCGGGGCCCCCCCGGGGCCCCCCCGGAAAGUAUUAUGUUACGCCGUUCGGAUCUG	-1.22
AAAAUUUCCAGUACCUUUGUCACAAUCCUAACACAUUAUCGGGAGCAGUGUCUUCCAUAAUGUAUAAAGAACAAGGUAGUUUUUACCUAC	-1.41
UGGGAGGUGGAUUUUGUUUAUUUUUUUAGCUCAUUUCCAGCGGUGGGAAUUUUUUUUUAAUAUGUGUCAUGAAUAAAGUUGUUUUUGAAA	-0.0694
GUCCUGUGCUACACAUCGUAUGUACCGAAUCGGGAAAAAAAGGGUUUUUUUGGGUGGGAAAGUAUUAUGUUACGCCGUUCGGAUCUGCAC	-2.21
AGUCCUGUGCUACACAUCGUAUGUACCGAAUCGGGGUGGGGAAAAAGGGGAAAGGGGAAAGUAUUAUGUUACGCCGUUCGGAUCUGCACU	0.00415

Series 2
Target: Centromere-binding protein 1, full length, N-terminal tag (CBF1, Saccharomyces cerevisiae, UniProt P17106, residues 1-351)
Chain of UniProt P17106 (whole entry, looked up): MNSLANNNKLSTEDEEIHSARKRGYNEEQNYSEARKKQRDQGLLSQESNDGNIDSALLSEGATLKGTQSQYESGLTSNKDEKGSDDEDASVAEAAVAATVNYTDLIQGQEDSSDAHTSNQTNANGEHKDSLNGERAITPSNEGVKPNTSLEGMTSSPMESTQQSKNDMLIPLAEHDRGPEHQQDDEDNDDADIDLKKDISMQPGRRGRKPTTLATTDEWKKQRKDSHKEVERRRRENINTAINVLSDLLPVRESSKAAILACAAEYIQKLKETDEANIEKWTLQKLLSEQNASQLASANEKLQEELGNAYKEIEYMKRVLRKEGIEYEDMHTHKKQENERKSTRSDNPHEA
Technique: protein-binding microarray
Molecule type: double-stranded DNA, one strand shown
Medium: in vitro
Concentration: 0.8 µM
Setting: whole 60-bp probe, no competitor
Direction: higher = stronger binding
All sequences stand within: … GTCTTGATTCGCTTGACGCTGCTG
Sequence	fluorescence intensity [a.u.]
CTACCGATGGAATAGCACATGGTGATGGTACAATTC	684
CTAGGCCCTCACTTTTATCTGATGCAATTTCTATTC	519
CTAGAAGTGATTGGTGTCACGATGATAAAAATTTTC	960
GAACAAGAGACACGTCACGACACAACACGATGATAG	780
GAAAAACGTGAAAATATCCACGTGGAAGGTGAATAG	3520
GAAACTGCACACACACACGTTTTATCTTTACGTTAG	615
GAAAATGACTGTTATTTCCACGTGTCTTTCTATTAG	2920
CTAAGTTCATATTCTCACGTTTTTCGCAAGATATTC	644
CCTAACTACTATATGGTCATTTAATAGCTTCGTACA	553
CTACTCAGGTGATGAAGCGTGATGACGATGACATTC	859
CTACTTTTTCACGGTGACGCCATTTTGCGCGGCTTC	571
CTACATTCACGTTAAAACGTGTATGTTCGAATATTC	614
GAATGCTACCCAATTCACGTTGTCCATGGTTATTAG	721
CTATGCGCGTAAAAACAGGAGATAAGCACTGTTTTC	505
CTAGAGGTATGTCTATTGGTGACGCCTGGTCTGTTC	516
CCTAACTACTATACTGATGTCTTATAGCTTCGTACA	537
GAATTCGGATCACATCAGCTGTGAGAGTACGGTTAG	573
CTACTGCATCTTATTCCCGTGCCAAGGTCTCTGTTC	675
TGTACGAAGCTATGTCTCGTGATTATAGTAGTTAGG	2220

Series 3
Target: RING finger protein unkempt homolog, zinc fingers 1-6, SBP tag (UNK, Homo sapiens, UniProt Q9C0B0, residues 30-357)
Chain of UniProt Q9C0B0 (30-357, looked up): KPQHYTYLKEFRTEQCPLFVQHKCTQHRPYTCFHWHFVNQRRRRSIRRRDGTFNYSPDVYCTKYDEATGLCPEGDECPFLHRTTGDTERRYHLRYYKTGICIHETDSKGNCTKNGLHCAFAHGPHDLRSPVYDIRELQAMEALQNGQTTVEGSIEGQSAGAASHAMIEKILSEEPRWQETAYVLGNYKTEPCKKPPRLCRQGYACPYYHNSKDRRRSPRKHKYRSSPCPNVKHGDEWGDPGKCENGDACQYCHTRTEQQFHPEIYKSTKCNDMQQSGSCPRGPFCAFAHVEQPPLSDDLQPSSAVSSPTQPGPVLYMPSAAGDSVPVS
Technique: RNA Bind-n-Seq
Molecule type: RNA
Medium: in vitro
Concentration: 100 nM
Setting: RNA with constant flanks, vertebrate orthologous sites, ends assumed
Reference: input RNA pool
Direction: higher = stronger binding
All sequences stand within: GGGAGUUCUACAGUCCGACGAUC … CAACAGAGGAUUGAGCAUCA
Sequence	bound/input enrichment [ratio]
UUCACCACUCCUGGGUGCAUGAUUGAGGGUGAAGCAUCCACCAGCACUUCAAGGGGUCCAUAGUAUUUUUUUUUUUUUGCUGCCUCAAAGUCCCCAAAGCCUUCGAGCAGAAGUGGCAGU	3.27
CUGAAGCUUUGUGUUUGGCUGCACCUGCAUAAGCUGCUACAAAUAGAAUAAAGAAUUUCAUAGCCUGUAUCUAUCAUUUAGGUGCAUGGAAAAAAAUGGGCUUUGCACACAAUGGGUUUG	1.69
CAUUGUAUCCUGCUGUAUAAUAAACAAUCUUAGACAUUUAUCAACUAUUGAUACAAAUGUUAGUCCCUAACCACUUUUUAUAUGUUUUAAAUUUUUGAAAUUCAAGUGUACCUGCCAUAA	2.67
CGCAUCUGGUGAUAUUUGGGCUGGCCUUUCAGCUUAUGAUAAUAGCCCCAGAUCACCCCAUAGUCCUUCACCUAUUGCUACACCACCUAGUCAGAGCUCCUCUUGCUCUGAUGCCCCCAU	0.398
AGCAACCCAAGGAUUCAGGACUGGUUUUACAAAUAUACCAAGUCGAUAUGGAACUAACAGUAGAAUUGGACAACCAAGACCAUGAUGUUCUCUAACUUAUUUUUAUGAGGAAUACUGACU	0.348
UGUAGUUUGUUUUUUAAUUUCAAGCAAAAUCUUAUUGUACUUGAAUGUGCCCUGUUUUGUUAGCACACCUAGACUUGCUGUAACUGUACUCAUGUCCCAGUAUGUACGUUCUUUCUAUGA	0.715
GCACUACCUAUACCAAUUUUACAACAUUGAAUGCAAAAUAGCGAAUUUCAUAGUCACAGAGGAAGGUAGCUUUAGGGAAUUGUCUCCAUGGAUUUUACUCGUGUAGGUUUUGAAACUGUA	0.954
GGGAGAGCCGGUGGGGGAAUCCCAUGCCCUGGCCUGCCACCCCUCCCUGCCACCCGCUCCUAGUUUGUUUUUUUUUAAACCACCAUGUGAUUAAGGUCGGCACUGCCUCCCCCGACCAGC	1.17

Series 4
Target: RNA binding protein fox-1 homolog 2, RRM domain, GST-SBP tag (RBFOX2, Homo sapiens, UniProt O43251-10, residues 100-194)
Technique: RNA Bind-n-Seq
Molecule type: RNA
Medium: in vitro
Concentration: 365 nM
Setting: natural RNA segment, single round, ends assumed
Reference: no-protein control
Direction: higher = stronger binding
All sequences stand within: GGGAGUUCUACAGUCCGACGAUC … UGGAAUUCUCGGGUGCCAA
Construct (chain): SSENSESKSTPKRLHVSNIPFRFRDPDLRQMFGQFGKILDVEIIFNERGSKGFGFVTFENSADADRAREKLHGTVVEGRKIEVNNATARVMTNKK
Sequence	RBNS enrichment (R)
AAGUGCUUCUAAGUAUUUCCUUAAGGUCUGUGAAGAGUAUUUGCCCUGCGUCUUCAUUUCCGUGUGUGUGCAACUGCUCCGCUCCAAGAACUGCACCGCUGUCUUGUGAG	0.407
AGAAUGAGCCAACCCAUGUACCUGCUGCAACUGAACCAGACUGGGUUUUCAAGGCUCCCAGACGUAGAGUAGGAAACGUGCUCUUCUAAAUGAGGAGGGAGAAGAUAAAG	1.02
AGCAUACAGGAUGGGGAGUCUGGUGUAUUCAGUGUUCACAGUCAGCAGACAUGGUGACCUGGUGGGAGACUUUAUUUAUCCAGUGUGGUGAUAGCAUGACCCUCCAUGCU	0.452
GUGGAUGGAGCAAGACUGUGAACACGUGUGACCCGGACCCACCUACAGCCCGGUGGACCUUCAGCCAAGAAACGCUGACUUCAUUCUCUAUUGCCCCUGCUGAGGGGCUC	0.556
CAAAGCGGAAAAUGUUUUAUUUUGUAAUUAUUGUGAUCUCCUGUGGCCCCAGCCUGGCCCAGCCCCCAGGGAGGGGCCCGCUUGCCUCAGCUCCUGCUGCCACCAACCCA	0.394
AGGGAUAGUCAUUUCUCAAAUGAGUUCUCUAAUAGAGAUUUUGUUCCUACAAUGUAGUCUGCACUGAAAAGAGAAUAGAGGAGGGUAGGGUGGUCAUUUUGCAGGAAUUU	0.881
AGUCCUCCACCCUCCCACUGCCGCCACCCCUACUGCUGCAGGCUCACAGACCUCAGUCAUGUGAUAAGCUAUGUUAUGGUUCUUUAUCUGUUUAAAAUAUGGAAUCUUCA	0.188
UGAGCUGCUUCUGGGUCUCACGGACCUCCUUGCAGCCCCCUUGCCCUUUCCUUGCCUUGUGUCCGGAACCUUCACACCUUUACCCCUGCGCUAGCCCCUGGCUGAGAGGA	0.571

Repeated from above (series 2):
Sequence	fluorescence intensity [a.u.]
CCTAACTACTATACTGATGTCTTATAGCTTCGTACA	537
GAATTCGGATCACATCAGCTGTGAGAGTACGGTTAG	573
CTACTGCATCTTATTCCCGTGCCAAGGTCTCTGTTC	675
